Published values of several laboratories.
Every numbered part comes from another study and shows a few of its results, in no order. Positions count from the first letter of the parent shown.

Series 1
Target: UBE2W UBC core domain (UniProt Q96B02)
Technique: yeast two-hybrid
Sample: yeast
Setting: mostly zero background
Baseline: not given
Reading: higher = stronger interaction
Measurement: lacZ reporter activity
B1: RNF122 RING domain (UniProt Q9H9V4); chain AKKLQLYGQTCAVCLEDFKGKDELGVLPCQHAFHRKCLVKWLEVRCVCPMCNKPIASPSEAT
B2: RNF31 RING domain (UniProt Q96EP0); chain AFLRRLLAQECAVCGWALPHNRMQALTSCECTICPDCFRQHFTIALKEKHITDMVCPACGRPDLTDDTQLL
B3: MEX3B RING domain (UniProt Q6ZN04); chain SGLRRKGSRDCSVCFESEVIAALVPCGHNLFCMECANRICEKSEPECPVCHTAVTQAIRIF
B4: RNF166 RING domain (UniProt Q96A37); chain GDSGLEAQYTCPICLEVYHRPVAIGSCGHTFCGECLQPCLQVPSPLCPLCRLPFDPKKVDK
B5: MYCBP2 RING domain (UniProt O75592); chain TSLKQDADDMCMICFTEALSAAPAIQLDCSHIFHLQCCRRVLENRWLGPRITFGFISCPICKNKINHIVLKD
B6: RLIM RING domain (UniProt Q9NVW2); chain SFGENDALKTCSVCITEYTEGNKLRKLPCSHEYHVHCIDRWLSENSTCPICRRAVLASGNRE
B7: MKRN2 RING domain (UniProt Q9H000); chain FAFQASQDKVCSICMEVILEKASASERRFGILSNCNHTYCLSCIRQWRCAKQFENPIIKSCPECRVISEFVIPSV
B8: TRIM60 RING domain (UniProt Q495X7); chain ALVNLQEESSCPICLEYLKDPVTINCGHNFCRSCLSVSWKDLDDTFPCPVCRFCFPYKSFRR
B9: TRIM22 RING domain (UniProt Q8IYM9); chain VKVDIEKEVTCPICLELLTEPLSLDCGHSFCQACITAKIKESVIISRGESSCPVCQTRFQPGNLRP
B10: RNF152 RING domain (UniProt Q8N8N0); chain ETLSQDSLLECQICFNYYSPRRRPKLLDCKHTCCSVCLQQMRTSQKDVRCPWCRGVTKLPPGFS
B11: TRIM37 RING domain (UniProt O94972); chain SVESIAEVFRCFICMEKLRDARLCPHCSKLCCFSCIRRWLTEQRAQCPHCRAPLQLRELVN
Construct (chain): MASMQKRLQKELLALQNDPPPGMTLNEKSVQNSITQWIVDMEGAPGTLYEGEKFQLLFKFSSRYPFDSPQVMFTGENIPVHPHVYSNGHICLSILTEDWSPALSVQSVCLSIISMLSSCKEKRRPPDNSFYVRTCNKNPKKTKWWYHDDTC
LGTKLEAKYLCSACRNVLRRPFQAQCGHRYCSFCLASILSSGPQNCAACVHEGIYEEGIS (TRAF2 RING domain (UniProt Q12933)): 0
FVKTVEDKYKCEKCHLVLCSPKQTECGHRFCESCMAALLSSSSPKCTACQESIVKDKVF (TRAF3 RING domain (UniProt Q13114)): 0
B1 (RNF122 RING domain): 0
B2 (RNF31 RING domain): 0
B3 (MEX3B RING domain): 0
AEADPLGRFTCPVCLEVYEKPVQVPCGHVFCSACLQECLKPKKPVCGVCRSALAPGVRAV (RNF114 RING domain (UniProt Q9Y508)): 0
B4 (RNF166 RING domain): 0
PEELAVNNDDCAICWDSMQAARKLPCGHLFHNSCLRSWLEQDTSCPTCRMSLNIADNNR (AMFR RING domain (UniProt Q9UKV5)): 11500
B5 (MYCBP2 RING domain): 0
B6 (RLIM RING domain): 0
LDAASGHPLVCPLCHGQYERPCLLDCFHDFCTGCLRGRATDGRLSCPLCQHQTLVKGPSG (Rnf207 RING domain (UniProt Q3V3A7)): 0
RYRQMEERITCPICIDSHIRLVFQCGHGACAPCGSALSACPICRQPIRDRIQIF (MIB2 RING domain (UniProt Q96AX9)): 0
B7 (MKRN2 RING domain): 0
KPDKMEETLTCIICQDLLHDCVSLQPCMHTFCAACYSGWMERSSLCPTCRCPVERICKNH (CHFR RING domain (UniProt Q96EP1)): 10800
B8 (TRIM60 RING domain): 0
B9 (TRIM22 RING domain): 0
B10 (RNF152 RING domain): 7670
B11 (TRIM37 RING domain): 0
QVQSRTKIEECVVCSDKKAAVLFQPCGHMCACENCANLMKKCVQCRAVVERRVPFI (MIB1 RING domain (UniProt Q86YT6)): 0

Series 2
Target: CCNE1, cyclin fold, Cln2 fusion (human)
Technique: yeast growth competition, sequencing
Sample: yeast
Setting: strong parent motif
Baseline: not given
Reading: higher = stronger binding
Measurement: normalised enrichment score
Starting sequence: viral docking peptide; KGVKRKLFAEDSS
K4R: 7.74
A9Y: 7.36
A9N: 6.87
D11Y: 6.79

Series 3
Partner: ARF20 484-590 (Arabidopsis thaliana, UniProt Q9C7I9)
Technique: two-hybrid
Baseline: out of 4 tests
Reading: higher = firmer interaction
Measurement: positive tests
B12: ARF1 538-665 (Arabidopsis thaliana, UniProt Q8L7G0); chain SRQIRSCTKVHMQGSAVGRAIDLTRSECYEDLFKKLEEMFDIKGELLESTKKWQVVYTDDEDDMMMVGDDPWNEFCGMVRKIFIYTPEEVKKLSPKNKLAVNARMQLKADAEENGNTEGRSSSMAGSR
B13: IAA19 (Arabidopsis thaliana, UniProt O24409); chain MEKEGLGLEITELRLGLPGRDVAEKMMKKRAFTEMNMTSSGSNSDQCESGVVSSGGDAEKVNDSPAAKSQVVGWPPVCSYRKKNSCKEASTTKVGLGYVKVSMDGVPYLRKMDLGSSQGYDDLAFALDKLFGFRGIGVALKDGDNCEYVTIYEDKDGDWMLAGDVPWGMFLESCKRLRIMKRSDATGFGLQPRGVDE
B14: IAA28 (Arabidopsis thaliana, UniProt Q9XFM0); chain MEEEKRLELRLAPPCHQFTSNNNINGSKQKSSTKETSFLSNNRVEVAPVVGWPPVRSSRRNLTAQLKEEMKKKESDEEKELYVKINMEGVPIGRKVNLSAYNNYQQLSHAVDQLFSKKDSWDLNRQYTLVYEDTEGDKVLVGDVPWEMFVSTVKRLHVLKTSHAFSLSPRKHGKE
B15: IAA31 (Arabidopsis thaliana, UniProt Q8H174); chain MEVSNSCSSFSSSSVDSTKPSPSESSVNLSLSLTFPSTSPQREARQDWPPIKSRLRDTLKGRRLLRRGDDTSLFVKVYMEGVPIGRKLDLCVFSGYESLLENLSHMFDTSIICGNRDRKHHVLTYEDKDGDWMMVGDIPWDMFLETVRRLKITRPERY
B16: ARF8 699-811 (Arabidopsis thaliana, UniProt Q9FGV1); chain NSSNQTKNFVKVYKSGSVGRSLDISRFSSYHELREELGKMFAIEGLLEDPLRSGWQLVFVDKENDILLLGDDPWESFVNNVWYIKILSPEDVHQMGDHGEGSGGLFPQNPTHL
B17: IAA18 (Arabidopsis thaliana, UniProt O24408); chain MEGYSRNGEISPKLLDLMIPQERRNWFHDEKNSVFKTEEKKLELKLGPPGEEDDDESMIRHMKKEPKDKSILSLAGKYFSPSSTKTTSHKRTAPGPVVGWPPVRSFRKNLASGSSSKLGNDSTTSNGVTLKNQKCDAAAKTTEPKRQGGMFVKINMYGVPIGRKVDLSAHNSYEQLSFTVDKLFRGLLAAQRDFPSSIEDEKPITGLLDGNGEYTLTYEDNEGDKMLVGDVPWQMFVSSVKRLRVIKTSEISSALTYGNGKQEKMRR
B18: IAA15 (Arabidopsis thaliana, UniProt Q9C966); chain MSPEEYVRVWPDSGDLGGTELTLALPGTPTNASEGPKKFGNKRRFLETVDLKLGEAHENNYISSMVTNDQLVGWPPVATARKTVRRKYVKVALDGAAYLRKVDLGMYDCYGQLFTALENMFQGIITICRVTELERKGEFVATYEDKDGDLMLVGDVPWMMFVESCKRMRLMKTGDAIGL
B19: IAA17 (Arabidopsis thaliana, UniProt P93830); chain MMGSVELNLRETELCLGLPGGDTVAPVTGNKRGFSETVDLKLNLNNEPANKEGSTTHDVVTFDSKEKSACPKDPAKPPAKAQVVGWPPVRSYRKNVMVSCQKSSGGPEAAAFVKVSMDGAPYLRKIDLRMYKSYDELSNALSNMFSSFTMGKHGGEEGMIDFMNERKLMDLVNSWDYVPSYEDKDGDWMLVGDVPWPMFVDTCKRLRLMKGSDAIGLAPRAMEKCKSRA
Residues (chain): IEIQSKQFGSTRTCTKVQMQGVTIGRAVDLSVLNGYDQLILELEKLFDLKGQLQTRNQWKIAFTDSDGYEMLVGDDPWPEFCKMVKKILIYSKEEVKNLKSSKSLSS
B12 (ARF1 538-665): 0
B13 (IAA19): 1
B14 (IAA28): 0
B15 (IAA31): 3
B16 (ARF8 699-811): 0
B17 (IAA18): 0
B18 (IAA15): 2
B19 (IAA17): 4

Series 4
Target: Phosphate system positive regulatory protein PHO4, full length, GST-tagged (PHO4, Saccharomyces cerevisiae, UniProt P07270, residues 1-312)
Technique: competition protein-binding microarray
Molecule type: double-stranded DNA, one strand shown
Sample: in vitro
Concentration: 2 µM
Setting: whole 60-bp probe, lowest competitor level
Together with: Cbf1 competitor, 0.05 µM
Reading: higher = stronger binding
Measurement: fluorescence intensity
Constant ends, left off below: … GTCTTGATTCGCTTGACGCTGCTG
Construct (chain): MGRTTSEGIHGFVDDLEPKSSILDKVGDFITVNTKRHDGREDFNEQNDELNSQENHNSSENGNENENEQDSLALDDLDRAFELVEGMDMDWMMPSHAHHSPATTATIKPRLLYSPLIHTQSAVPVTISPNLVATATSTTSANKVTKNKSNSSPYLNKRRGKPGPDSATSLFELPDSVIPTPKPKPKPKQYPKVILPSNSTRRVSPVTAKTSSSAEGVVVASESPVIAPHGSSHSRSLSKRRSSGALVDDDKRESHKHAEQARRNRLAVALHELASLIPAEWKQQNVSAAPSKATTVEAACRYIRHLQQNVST
CTTGCCATACCTTCACACGGGGTTCTTTGAGGCACT: 8290 a.u.
CAGTGGGAATCTGTTCATGTGGCTGTATCACAACCA: 6450 a.u.
CCAAATTGGCTGAAGAGCGTGGCCGGACGAACATTC: 6540 a.u.
GGGTGTCGATACCGTCACGTGAAGACATTCCAAGTC: 11600 a.u.
CTTTCCCGATCTTGGTTTGTGGGTGTAGCACATTTG: 4840 a.u.
CGTCCTAGTGATTGGATGGTGGGTGCCATGAGGAAG: 7410 a.u.
CCCTCCCAGTTCTCGCGCGTGTGGAGAGTGGGTTCT: 6890 a.u.
ATGATGACAGGATAGCATGTGCTTTTCGACGGCTGA: 10600 a.u.

Mixed results
Target: Sodium-dependent dopamine transporter (SLC6A3, Homo sapiens, UniProt Q01959)
UniProt Q01959, sequence (whole entry, looked up): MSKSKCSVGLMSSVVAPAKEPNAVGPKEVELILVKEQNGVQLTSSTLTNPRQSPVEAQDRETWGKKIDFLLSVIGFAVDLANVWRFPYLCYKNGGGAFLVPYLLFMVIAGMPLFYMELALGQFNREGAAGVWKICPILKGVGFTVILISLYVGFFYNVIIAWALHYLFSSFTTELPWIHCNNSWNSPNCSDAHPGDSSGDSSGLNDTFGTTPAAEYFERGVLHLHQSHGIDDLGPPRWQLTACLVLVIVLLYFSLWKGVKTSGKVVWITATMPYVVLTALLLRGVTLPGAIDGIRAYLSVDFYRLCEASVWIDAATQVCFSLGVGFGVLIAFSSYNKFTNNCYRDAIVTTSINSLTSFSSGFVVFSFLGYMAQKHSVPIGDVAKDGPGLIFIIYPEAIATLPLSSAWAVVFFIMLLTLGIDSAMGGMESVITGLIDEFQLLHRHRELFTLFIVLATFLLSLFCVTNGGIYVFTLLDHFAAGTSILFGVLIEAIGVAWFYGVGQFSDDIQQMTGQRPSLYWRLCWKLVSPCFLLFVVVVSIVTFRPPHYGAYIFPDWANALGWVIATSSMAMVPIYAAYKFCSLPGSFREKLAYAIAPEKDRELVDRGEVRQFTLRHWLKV
Observed: binding
Technique: radioligand binding
Concentration: 10 µM
COCCc1ccc(-c2c(C)nc3c(N4CCOCC4)ccnn23)cn1  inhibition: 9.55%
CCOC(=O)c1cc2cc(-c3cc(C(=O)NCc4ccc(C(=O)O)cc4)nn3C)ccc2[nH]1  inhibition: 2.26%

Repeated from above (series 1):
B6 (RLIM RING domain): 0
AEADPLGRFTCPVCLEVYEKPVQVPCGHVFCSACLQECLKPKKPVCGVCRSALAPGVRAV (RNF114 RING domain (UniProt Q9Y508)): 0
B4 (RNF166 RING domain): 0
B11 (TRIM37 RING domain): 0
B5 (MYCBP2 RING domain): 0
